# Measurements collected from several papers.
# Each line is one published result; not all experiments were run side by side. ± gives the spread as reported.
SMILES,target,test,test system,conditions,scale,quantity,value
Cc1ccc(S(=O)(=O)N2N=Cc3ccsc3B2O)cc1,human pancreatic trypsin,"enzyme activity, inhibitor",,,,IC50,> 100 µM
CC1(C)CC(c2cn(C3CCCN(C(=O)c4ccc5c(c4)CCOC5(C)C)CC3)nn2)CO1 (centres unmarked),"FSP1, ancestral","resazurin reduction, inhibitor",,"pH 7.2, together with: NADH, resazurin",,IC50,21.5 ± 0.1 µM
O=C(Nc1cc(OCCN2CCCC2)c2ccccc2n1)c1cccc(C(=O)Nc2cc(OCCN3CCCC3)c3ccccc3n2)n1,human telomeric G-quadruplex DNA,FRET melting,,"1 µM, pH 7.4, together with: 60 mM potassium",,ΔTm,22 ± 0.9 K
C=CC(=O)Nc1cccc(Cn2ncc3cnc(Nc4cnn(CCOC)c4)nc32)c1,GRK1 human,"binding, KINOMEscan",,100 nM,lower = stronger binding,percent of control,100%
Fc1ccc(Nc2nc(NC3CCCCC3)c3cc(C(F)(F)F)ccc3n2)cc1F,β2AR/β1AR ECL3 chimera,"β-arrestin2 recruitment, antagonist, BRET",,,relative to: isoprenaline maximal response,maximal inhibition,-3.1%
c1ccc(-c2n[nH]cc2-c2ccnc3ccccc23)nc1,CDC7 (Candida albicans),"kinase binding, MIB/MS competition",Candida albicans lysate,10 µM,relative to: DMSO,log2 fold change,-0.1
Fc1ccc(Nc2nc(NC3CCCCC3)c3ccccc3n2)cc1F,β2AR/β1AR ECL3 chimera,"β-arrestin2 recruitment, antagonist, BRET",,,relative to: isoprenaline maximal response,maximal inhibition,3.6%
C[n+]1ccc(/C=N/NC(=O)c2cccc(C(=O)N/N=C/c3cc[n+](C)c4ccccc34)n2)c2ccccc21,human telomeric G-quadruplex DNA,UV melting,,"6 µM, 100 mM potassium, together with: DNA 3 µM",,delta Tm,31.3 °C
CC(C)c1ccc(N(C)c2ccc3c(c2)OCC[C@H]3CNc2cnccc2C(=O)O)cc1,KDM4A-D,"enzyme activity, inhibitor",,,,IC50,≤ 0.08 µM
Nc1ncc(-c2cc(-c3cnn(CC(F)(F)F)c3)ncc2F)nc1C(=O)NC1CNCC(F)C1 (centres unmarked),ERK8,KINOMEscan,,1 µM,relative to: DMSO control,remaining binding,12%
C=CC(=O)N1[C@@H](c2ccc3c(c2)OCO3)c2[nH]c3ccccc3c2C[C@H]1C(=O)N1CCN(C)CC1,human cyclin E1 wild type-3xFLAG:CDK2,"co-IP with TMT proteomics, measured: NCL",,"concentration not given, P19338",relative to: wild type DMSO,relative co-enrichment,101%

# Excerpt of the above:
SMILES,target,test,test system,conditions,scale,quantity,value
C=CC(=O)N1[C@@H](c2ccc3c(c2)OCO3)c2[nH]c3ccccc3c2C[C@H]1C(=O)N1CCN(C)CC1,human cyclin E1 wild type-3xFLAG:CDK2,"co-IP with TMT proteomics, measured: NCL",,"concentration not given, P19338",relative to: wild type DMSO,relative co-enrichment,101%
